Assay results of several laboratories.
Parts stem from different laboratories: compare values within a part only. Substitutions count along the parent as printed.

Set 1 — target: CCNA1, cyclin fold, Cln2 fusion (human); method: yeast growth competition, sequencing; medium: yeast; setting: weak parent motif; baseline: not given; reading: higher = stronger binding
Starting sequence: CDKN1B docking peptide (human); PSACRNLFGPVDH
Variant	normalised enrichment score
PSACRNLFGPQDH [V11Q]	0.23
PSACRNPFGPVDH [L7P]	-0.0194
PDACRNLFGPVDH [S2D]	0.225
PTACRNLFGPVDH [S2T]	0.457
PSACRNLIGPVDH [F8I]	0.349
PSACINLFGPVDH [R5I]	0.0457
PSACRNLNGPVDH [F8N]	0.321
PSACRRLFGPVDH [N6R]	0.19
PSACRNLGGPVDH [F8G]	0.155
PSACRNLFGPVDM [H13M]	0.214
PSACRNLFGPVHH [D12H]	0.0448
PSACCNLFGPVDH [R5C]	-0.00451
PSACRNLFGPVLH [D12L]	0.337
PSACRLLFGPVDH [N6L]	0.447
PSAKRNLFGPVDH [C4K]	0.234
PSACRNLFGPVKH [D12K]	0.367
PGACRNLFGPVDH [S2G]	0.392
PSACRNLFGPVDF [H13F]	0.446
ESACRNLFGPVDH [P1E]	0.184
PSACRNCFGPVDH [L7C]	-0.104
PSACRHLFGPVDH [N6H]	0.337
PSACRNLFGPWDH [V11W]	0.557
PSACRNLFHPVDH [G9H]	0.327
PSACRNQFGPVDH [L7Q]	0.176
PSACRNLFYPVDH [G9Y]	0.453

Set 2 — target: CEBPB, bZIP domain (human); method: DHFR protein complementation; medium: yeast; baseline: wild-type JUN-FOS pair; reading: higher = stronger binding
Setting: single substitutions, most at no-binding floor
Starting sequence: JUN, bZIP domain (human); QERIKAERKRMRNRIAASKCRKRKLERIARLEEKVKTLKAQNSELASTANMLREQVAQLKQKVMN; partner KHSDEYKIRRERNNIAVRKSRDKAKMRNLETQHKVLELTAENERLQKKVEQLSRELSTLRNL
Variant	binding fitness
L45G	-1.51 natural log
L45S	-1.2 natural log
K39N	-1.44 natural log
R30T	-1.08 natural log
L45P	-1.54 natural log
R53Y	-1.25 natural log
N42C	-1.5 natural log
Q55E	-1.35 natural log
A46Q	-1.2 natural log
K39C	-1.37 natural log
T48D	-1.54 natural log
E33T	-1.33 natural log
M51D	-1.28 natural log
S47I	-1.35 natural log
K34H	-1.4 natural log
E32L	-1.42 natural log
K39S	-1.37 natural log
L52R	-1.51 natural log
N42M	-1.46 natural log
S43L	-1.29 natural log

Set 3 — method: RNA Bind-n-Seq; form: RNA; medium: in vitro; tested at: 365 nM; baseline: no-protein control; reading: higher = stronger binding
Target: RNA binding protein fox-1 homolog 2, RRM domain, GST-SBP tag (RBFOX2, Homo sapiens, UniProt O43251-10, residues 100-194)
Setting: natural RNA segment, single round, ends assumed
Constant ends, left off below: GGGAGUUCUACAGUCCGACGAUC … UGGAAUUCUCGGGUGCCAA
Residues (chain): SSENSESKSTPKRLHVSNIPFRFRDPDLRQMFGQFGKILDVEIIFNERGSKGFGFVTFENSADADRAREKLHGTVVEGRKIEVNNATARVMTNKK
Sequence	RBNS enrichment (R)
AGUCUUCACUCCAUCCCCAGGUGCUUGUUCACCUCAUUAAUGAGCACCUAGAGCAAGGACCAAAAGAAGGAAAACUAAUUAAAACCAAUGCAUAUUCAUGCCAAAACAAG	0.238
CUCUGGGACGGGGCACACACAGGCCCAGCCUCUGUGCUGUCUCCUCCUCCGUGCGCCUCAGACUCGGGGUGAGGGAGGCGGGCAGCCUCUCGCCAGCCUUCCCGUCCUUC	0.244
CACCAUUCAGUCUCCCCCUUUUCCUCUGUUUUUACAAUAAAGAAAGCACAUUUUACCAUUGCUAUUGGGAGGAAGCAGAAGGCAGAUUGGAAAGAACAGCGAGUAAGUGC	0.376
CAAGUGAGCAGAUGGGACAAGUUAGUCUUUUCUCCCUAGAAACAAAGGGGAUGCCCAGUGGUUUCCCUUUGCUUCCCAACCUAAAAUUUCAAGUUUAAUAAAAUAGCAAU	0.285
CAUAAGAAUGCUGUUUGCUGCAGUUCUGUGUCCUGUGCUUGGAUGCUUUUUUAUAAGAGUUGUCAUUGUUGGAAAUUCUUAAAUAAAACUGAUUUAAAUAAUAUGUGUCU	15.4
GUGCACCUAUUGGCUCUUCUAGCUGACUCUUCUGGUUGGGCUUAGAGUCUGCCUGUUUCUGCUAGCUCCGUGUUUAGUCCACUUGGGUCAUCAGCUCUGCCAAGCUGAGC	0.962
AAAUUUGGUACUUAAGGCACAGCCAGUGUGAGGCACUGAACGCGACAUUUAUUACAAUGAGCUGCUGCACUCCUACUUUUAUAAAUUUUACUAACAAGUAGACUAAUGUA	0.539
UUCCCCAGAAGUCAUUUUCAGCCUUAAUUCUCAUCAUGUAUAAAUUAACAUAAAUCAUGCAUGUCUGUUUACUUUAGUGACGUUCCACAGAAUAAAAGGAAACAAGUUUG	1.08

Set 4 — method: DHFR PCA, deep sequencing; medium: yeast; together with: (+)-ABA 58 µM; baseline: wild-type fitted maximum; reading: higher = stronger binding
Target: ABI1, truncated, D143A, DHFR fusion (Arabidopsis thaliana)
Setting: methotrexate growth selection, single substitutions
Starting sequence: PYL1, truncated, DHFR fusion (Arabidopsis thaliana); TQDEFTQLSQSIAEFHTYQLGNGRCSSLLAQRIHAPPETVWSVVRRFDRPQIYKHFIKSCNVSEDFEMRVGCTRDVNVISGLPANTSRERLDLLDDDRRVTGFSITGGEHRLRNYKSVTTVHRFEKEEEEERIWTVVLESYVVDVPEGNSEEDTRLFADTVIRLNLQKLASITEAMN
Variant	relative binding score [%]
K126T	106
D3V	76.6
R132K	100
E139S	68.8
E174G	63
L29F	27.2
E14S	65.6
V136E	22.8
V100L	67.4
A158V	93.2
L93N	52.9
E67F	70.6
I12Q	38.1
E129D	95.6
R32L	78.1
R74Y	-3.92

Repeated from above (set 3):
Sequence	RBNS enrichment (R)
CUCUGGGACGGGGCACACACAGGCCCAGCCUCUGUGCUGUCUCCUCCUCCGUGCGCCUCAGACUCGGGGUGAGGGAGGCGGGCAGCCUCUCGCCAGCCUUCCCGUCCUUC	0.244
CACCAUUCAGUCUCCCCCUUUUCCUCUGUUUUUACAAUAAAGAAAGCACAUUUUACCAUUGCUAUUGGGAGGAAGCAGAAGGCAGAUUGGAAAGAACAGCGAGUAAGUGC	0.376
CAUAAGAAUGCUGUUUGCUGCAGUUCUGUGUCCUGUGCUUGGAUGCUUUUUUAUAAGAGUUGUCAUUGUUGGAAAUUCUUAAAUAAAACUGAUUUAAAUAAUAUGUGUCU	15.4
AGUCUUCACUCCAUCCCCAGGUGCUUGUUCACCUCAUUAAUGAGCACCUAGAGCAAGGACCAAAAGAAGGAAAACUAAUUAAAACCAAUGCAUAUUCAUGCCAAAACAAG	0.238
UUCCCCAGAAGUCAUUUUCAGCCUUAAUUCUCAUCAUGUAUAAAUUAACAUAAAUCAUGCAUGUCUGUUUACUUUAGUGACGUUCCACAGAAUAAAAGGAAACAAGUUUG	1.08
GUGCACCUAUUGGCUCUUCUAGCUGACUCUUCUGGUUGGGCUUAGAGUCUGCCUGUUUCUGCUAGCUCCGUGUUUAGUCCACUUGGGUCAUCAGCUCUGCCAAGCUGAGC	0.962
CAAGUGAGCAGAUGGGACAAGUUAGUCUUUUCUCCCUAGAAACAAAGGGGAUGCCCAGUGGUUUCCCUUUGCUUCCCAACCUAAAAUUUCAAGUUUAAUAAAAUAGCAAU	0.285
AAAUUUGGUACUUAAGGCACAGCCAGUGUGAGGCACUGAACGCGACAUUUAUUACAAUGAGCUGCUGCACUCCUACUUUUAUAAAUUUUACUAACAAGUAGACUAAUGUA	0.539
